Published values collected from several papers.
Protocols differ between the studies behind these lines.

The inhibition of `C/C(=N\N=C1/NC(=O)CS1)c1ccccn1` is reported as 59.9% (HEp-2; cell growth or viability, SRB; 100 µg/mL, 48 h).
For `COc1ccc2c(c1)/C(=N\Nc1nnc3n1N=C(c1ccccc1)CS3)C(=O)N2`, the inhibition was 29% (M14; cell growth or viability, SRB; 10 µM).
With `C=CC(=O)Nc1ccc(F)c(-c2ncnc3[nH]cc(C(=O)OCC)c23)c1` the inhibition was 95% (mouse CD4 T-cell blasts; S-phase entry; 100 nM, added 8 h after IL-2, added: IL-2).
For `Cc1nc2ccc(Cc3c[nH]c4ncc(C(F)(F)F)cc34)cc2o1`, the inhibition was 23% (4T1; cell growth or viability, MTT; 10 µM, 72 h).
The inhibition of `O=C(c1ccc(Oc2ccc(C3CCCCC3)cc2)c([N+](=O)[O-])c1)C(Cl)Cl` is reported as over 95% (NCI-H1975; cell growth or viability, MTT; 2.5 µM).
With `COc1cc(/C=C/C(=O)/C=C(O)/C=C/c2ccc(OCC(=O)N3CCOCCOCCOCCOCC3)c(OC)c2)ccc1OCC(=O)N1CCOCCOCCOCCOCC1` the inhibition was 21.4% (U-251; cell growth or viability, SRB; 5 µM).
The inhibition of `CC(C)(C)c1ccc(-c2ccc(S(=O)(=O)N(CCC(F)(F)F)c3ccc(C(=O)NCCC(=O)O)cc3)cc2)cc1` is reported as 72% (mouse primary hepatocytes; glucose production; 20 µM, gluconeogenic substrates, added: glucagon 10 nM).
`O=C(COc1ccc(/C=N/Nc2nc(-c3ccc(Cl)cc3)cs2)cc1)N1CCN(C(=O)COc2ccc(/C=N/Nc3nc(-c4ccc(Cl)cc4)cs3)cc2)CC1` gave an inhibition of 40.6% (HDF; cell growth or viability, SRB; 100 µM, 48 h).
`CC(=O)Nc1ccc(OC(=O)CCC(=O)[O][Pt-2]23([O]C(=O)CCC(=O)Oc4ccc(NC(C)=O)cc4)([NH2+][C@@H]4CCCC[C@H]4[NH2+]2)[O]C(=O)C(=O)[O]3)cc1` gave an inhibition of about 20% (4T1; cell migration, wound healing; 2 µM, 48 h; relative to: untreated control).
The inhibition of `COc1cc(Cc2c[nH]c3ncc(C(F)(F)F)cc23)cc(OC)c1` is reported as 77.3% (4T1; cell migration; 10 µM, 24 h).
The inhibition of `O=C(COc1ccccc1/C=N/Nc1nc(-c2ccc(Cl)cc2)cs1)N1CCN(C(=O)COc2ccccc2/C=N/Nc2nc(-c3ccc(Cl)cc3)cs2)CC1` is reported as 66.9% (HDF; cell growth or viability, SRB; 100 µM, 48 h).
`Cc1cc(S(=O)(=O)N(CCC(F)(F)F)c2ccc(C(=O)NCCC(=O)O)cc2)cc(C)c1-c1ccc(C(C)(C)C)cc1` gave an inhibition of 71% (mouse primary hepatocytes; glucose production; 20 µM, gluconeogenic substrates, added: glucagon 10 nM).
The inhibition of `CC(C)C[C@H](NC(=O)[C@H](CO)NC(=O)[C@H](CCCNC(=N)N)NC(=O)[C@H](CCCCN)NC(=O)[C@@H](NC(=O)[C@@H](NC(=O)CNC(=O)[C@H](CCCNC(=N)N)NC(=O)[C@H](Cc1c[nH]cn1)NC(=O)[C@H](Cc1c[nH]c2ccccc12)NC(=O)[C@H](Cc1ccccc1)NC(=O)[C@H](Cc1c[nH]cn1)NC(=O)[C@H](Cc1ccc(O)cc1)NC(=O)[C@@H](N)Cc1ccc(O)cc1)C(C)C)[C@@H](C)O)C(=O)N[C@@H](CO)C(=O)N1CCC[C@H]1C(=O)N[C@@H](Cc1c[nH]cn1)C(=O)N[C@@H](CCCNC(=N)N)C(=O)N1CCC[C@H]1C(=O)N[C@@H](CCCNC(=N)N)C(=O)N[C@@H](Cc1c[nH]cn1)C(=O)N[C@@H](CO)C(=O)N[C@@H](CCCNC(=N)N)C(=O)O` is reported as 15% (THP-1; IL-1β secretion, ELISA; 5 µM, 4 to 12 h, added: LPS).
